Measured values of several laboratories.
Parts stem from different laboratories: compare values within a part only. Substitutions count along the parent as printed.

Study 1 — target: CREB3L4, bZIP domain (human); technique: DHFR protein complementation; matrix: yeast; relative to: wild-type JUN-FOS pair; reading: higher = stronger binding
Setting: single substitutions, most at no-binding floor
Parent: JUN, bZIP domain (human); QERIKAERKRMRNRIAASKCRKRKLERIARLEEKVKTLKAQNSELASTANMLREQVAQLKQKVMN; partner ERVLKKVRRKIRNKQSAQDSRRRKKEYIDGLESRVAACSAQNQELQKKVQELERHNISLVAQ
Change | binding fitness
L38Y | -1.58 natural log
E44V | -1.51 natural log
N42Y | -1.42 natural log
S43E | -1.51 natural log
E33L | -1.42 natural log
I28V | -1.51 natural log
T48R | -1.25 natural log
K39P | -1.48 natural log
A49E | -1.34 natural log
S43K | -1.41 natural log
R30C | -1.44 natural log
R53A | -1.49 natural log
A29V | -1.54 natural log
S47P | -1.56 natural log
T48E | -1.36 natural log
A29D | -1.36 natural log

Study 2 — technique: protein binding microarray; form: double-stranded DNA, one strand shown; matrix: in vitro; tested at: not given; relative to: not given; reading: higher = stronger binding
Target: Histone acetyltransferase KAT6A, both winged helices, GST fusion (KAT6A, Homo sapiens, UniProt Q92794, residues 1-181)
Setting: 8-mer, flanks averaged, mean of 2 arrays, mostly near background
Residues (chain): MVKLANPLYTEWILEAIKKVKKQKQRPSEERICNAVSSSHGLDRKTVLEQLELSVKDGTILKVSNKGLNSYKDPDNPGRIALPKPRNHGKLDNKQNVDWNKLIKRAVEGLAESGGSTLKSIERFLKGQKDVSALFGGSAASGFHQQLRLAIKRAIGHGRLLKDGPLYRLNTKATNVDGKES
Oligonucleotide | E-score
ACATGCTG | -0.136
ACGCTTGG | 0.0196
CAGGGTCC | -0.0626
CAGTCAGA | 0.0396
AATGGTTC | 0.138
ACACGGCA | 0.252
AGATGAGG | -0.288
AGCGCTCC | 0.253
AGGTCCCG | 0.152
CAACGGGC | 0.158
ACGGGTCT | 0.146
AATGCACT | 0.0179
CTGCCTGC | -0.126
CGGGCACG | 0.204
AACGACAA | 0.134
ACCGTCTC | 0.0854
TAATGGAA | -0.0272
ATGTGTAG | -0.0397
AGCTAACA | -0.162
ACAGAACA | 0.034
CTATATAA | 0.0213
CTGTTTCC | 0.0402
AGTGGCTG | -0.0777

Study 3 — technique: DHFR PCA, deep sequencing; matrix: yeast; with: (+)-ABA 0.032 µM; relative to: wild-type fitted maximum; reading: higher = stronger binding
Target: ABI1, truncated, D143A, DHFR fusion (Arabidopsis thaliana)
Setting: methotrexate growth selection, single substitutions
Parent: PYL1, truncated, DHFR fusion (Arabidopsis thaliana); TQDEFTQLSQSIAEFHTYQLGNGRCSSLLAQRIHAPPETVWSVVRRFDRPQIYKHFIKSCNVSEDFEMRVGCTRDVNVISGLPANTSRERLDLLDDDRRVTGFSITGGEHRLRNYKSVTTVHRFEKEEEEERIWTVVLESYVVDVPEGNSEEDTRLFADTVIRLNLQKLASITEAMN; partner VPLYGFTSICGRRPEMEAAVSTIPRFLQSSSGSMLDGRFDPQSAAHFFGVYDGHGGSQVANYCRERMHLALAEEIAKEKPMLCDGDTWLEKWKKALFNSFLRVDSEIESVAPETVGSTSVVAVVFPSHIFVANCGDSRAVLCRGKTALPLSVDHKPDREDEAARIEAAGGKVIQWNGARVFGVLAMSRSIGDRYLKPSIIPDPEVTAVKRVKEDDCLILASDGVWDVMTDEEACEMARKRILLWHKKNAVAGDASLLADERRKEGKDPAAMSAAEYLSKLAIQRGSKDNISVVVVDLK
Change | relative binding score [%]
R99I | 2.45
D92C | -8.37
D159Y | -1.43
S27Y | 5.22
S26Y | -2.09
L138H | 1.87
V43S | -3.62
F66R | 4.06
L112Q | -0.578
E147M | 4.22
H34E | 31
V136C | 1.4
S59R | 4.39
D97F | 11.7
T86W | 72.6
E89S | 1.13

Study 4 — technique: universal PBM; form: double-stranded DNA, one strand shown; matrix: in vitro; tested at: 600 nM; reading: higher = stronger binding
Target: Sal-like protein 4, full length isoform A (SALL4, Homo sapiens, UniProt Q9UJQ4, residues 1-1053)
UniProt Q9UJQ4, sequence (whole entry, looked up): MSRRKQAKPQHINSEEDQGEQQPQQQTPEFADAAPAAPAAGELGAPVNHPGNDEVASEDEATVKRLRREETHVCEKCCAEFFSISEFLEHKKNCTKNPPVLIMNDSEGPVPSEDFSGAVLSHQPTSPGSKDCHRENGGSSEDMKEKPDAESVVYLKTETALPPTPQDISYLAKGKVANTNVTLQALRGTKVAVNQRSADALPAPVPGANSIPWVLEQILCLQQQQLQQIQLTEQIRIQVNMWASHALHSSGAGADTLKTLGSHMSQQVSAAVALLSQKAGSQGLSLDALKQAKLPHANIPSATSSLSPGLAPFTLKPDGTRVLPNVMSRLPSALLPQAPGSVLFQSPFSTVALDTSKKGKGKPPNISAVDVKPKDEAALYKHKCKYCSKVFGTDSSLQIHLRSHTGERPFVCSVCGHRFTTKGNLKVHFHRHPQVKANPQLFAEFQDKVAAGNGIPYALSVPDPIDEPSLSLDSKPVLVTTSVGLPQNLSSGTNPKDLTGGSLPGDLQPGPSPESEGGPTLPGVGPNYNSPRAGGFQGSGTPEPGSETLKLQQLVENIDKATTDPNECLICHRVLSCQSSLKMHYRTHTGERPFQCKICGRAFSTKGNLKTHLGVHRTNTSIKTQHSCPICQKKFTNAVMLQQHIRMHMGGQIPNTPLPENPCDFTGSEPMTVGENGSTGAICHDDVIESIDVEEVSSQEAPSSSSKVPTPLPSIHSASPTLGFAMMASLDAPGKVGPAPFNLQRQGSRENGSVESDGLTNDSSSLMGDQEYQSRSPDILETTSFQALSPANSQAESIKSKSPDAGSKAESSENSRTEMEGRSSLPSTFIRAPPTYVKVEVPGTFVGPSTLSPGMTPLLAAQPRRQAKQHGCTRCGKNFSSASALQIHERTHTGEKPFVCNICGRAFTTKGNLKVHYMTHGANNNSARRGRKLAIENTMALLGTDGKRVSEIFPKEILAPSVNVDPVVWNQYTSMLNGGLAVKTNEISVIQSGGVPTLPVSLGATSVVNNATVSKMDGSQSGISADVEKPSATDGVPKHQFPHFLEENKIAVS
Setting: 8-mer, flanks averaged, mean of replicates
Oligonucleotide | E-score
AGGAAATC | 0.053
CTGCGATA | -0.0401
ATTCCGAA | 0.173
AACGTTAG | 0.15
AGGAGTAT | 0.0164
ATTGGGCG | -0.0402
GAACTGGC | -0.237
AGACGAGG | -0.224
CTATAGAC | 0.132
AATCTTCG | 0.249
GTGTTCGA | -0.0895
GGGGTACA | -0.247
CATTTCGG | 0.0431
AGCAGTAC | 0.0345
CACGGCGC | -0.209
ACATACAC | 0.157
AGGGAAGG | -0.0713
GGCCGAGA | -0.227
GGTGCCTA | -0.227
ATCGCAGG | 0.00956
CCGAACTA | -0.043

Study 5 — target: CCND1, cyclin fold, Cln2 fusion (human); technique: yeast growth competition, sequencing; matrix: yeast; setting: weak parent motif; relative to: not given; reading: higher = stronger binding
Parent: CDC25A docking peptide (human); PPHRRRLLFACSP
Change | normalised enrichment score
L7S | -0.218
F9S | 0.389
L7E | -0.122
R4K | -0.245
P13Q | 0.353
A10G | 0.282
S12K | 0.145
C11F | 0.554
R6G | -0.277
P1R | 0.284
L7D | -0.0372
H3Q | 0.074
F9M | -0.156
P2K | 0.214
L8Q | -0.642
A10H | -0.0492
H3R | 0.277
A10F | 0.567
R5W | 0.437
C11R | -0.108
R4H | -0.498
H3T | 0.0807
R6M | 0.754
F9I | -0.12
L8G | 0.0127

Study 6 — technique: protein-binding microarray; form: double-stranded DNA, one strand shown; matrix: in vitro; tested at: 940 nM top; setting: 60-bp whole probe; with: salmon DNA 0.4 mg/ml; relative to: random background probes; reading: higher = stronger binding; all sequences stand within: GCCTAGCAC … GTCTTGATTCGCTTGACGCTGCTG
Target: Interferon regulatory factor 5, full length, phosphomimetic (IRF5, Homo sapiens, UniProt Q13568-2, residues 1-514, S451D/S453D/S456D/S462D)
Oligonucleotide | fitted relative affinity [z-score]
TTACGTTTCGGTTTCGGTTAGTGCTAG | 11.9
TTAGGTATCGACTTCCGGTTAGTGCTA | 6.06
TTAGTACTGGGACTGGGTTAGTGCTAG | -0.286
CTTGTGCTCCTTTTAATTTTGTGCTAG | 0.695
GACGGTCGCGGTTTCGGGACGTGCTAG | 2.98
GTCGGACTGGACTTTCGGGACGTGCTA | 0.782
GACGGTCTCGGTCTCCGGACGTGCTAG | 4.19
TTAGGACTGGGTAGCGGTTAGTGCTAG | -0.32
TTCGAATTCAGAATGGGAGAGTGCTAG | -0.377
AACGATTTCAGTATCGAGACGTGCTAG | 2.53
GACGGTCTCCTTTTCCTGAGGTGCTAG | 0.327
TTGGGTATCGGTATCGGTTAGTGCTAG | 9.33
TGAGGACTGGGTTTCGGTTAGTGCTAG | 7.18
GACGGACTGGGCTTTCGGGACGTGCTA | -0.407
GACGATTTCGGGACTGGGGACGTGCTA | 0.0999
TTTCTAATGTTTTTTAAAGTGTGCTAG | 1.99
TTAGAATTGGGGACTGGATTAGTGCTA | -0.0143
TTAGGATTCGGTTCCGGTTAGTGCTAG | 2.53
TCATTTCTCAAATGTTTTACTGTGCTA | 0.407
GACGGTATCGGGACTGGGCACGTGCTA | 2.83
ATGCATGTAAATAATCAGACAGTGCTA | -0.139
TTAGATCTCGGTCTCGGTTAGTGCTAG | 3.63
TTAGGTAACGGGTTTCGGTTAGTGCTA | 5.45
GACGATTCCAGACTGGAGACGTGCTAG | -0.385
GACGGACCGGGGTATCGGGACGTGCTA | 0.1

Other studies, line by line
Molecule | target | test | test system | setting | how to read | measurement | value
PhoQ, residues 284 288 289 292 302 303 TGYLSA | PhoP, residues 12 14 15 18 19 IQFRS (Escherichia coli, UniProt P23836) | Sort-seq, item: YFP reporter | E. coli | PhoQ-PhoP variant library, with: 10 µM Mg2+ | relative to: high Mg2+ state, higher = stronger signaling | fold induction | 8.78
